Experimental data pooled from the literature.
Each line is one published result; not all experiments were run side by side. Several values in a cell are separate wells, animals, samples, runs or records. Numbers after ± are the reported error.

CCc1cc(C(=O)NC)c2nccc(N3CCc4c(cc(Cn5ccnc5)cc4-c4cn(C)nc4C(F)(F)F)C3=O)c2c1 — red cell distribution width (Sprague Dawley rats; oral, 50 mg/kg once daily, 7 days): 13.2 ± 0.92%
O=C(CCCCCCC(=O)Nc1ccc(CC[18F])cc1)NO — tissue uptake (athymic nu/nu male mice, LNCaP xenograft, small intestine; intravenous, 0.5 h): 15.3 ± 2.9 %ID/g
OC[C@H]1O[C@@H](c2ccc(F)c(Cc3cc4ccccc4s3)c2)[C@H](O)[C@@H](O)[C@@H]1O — hypoglycaemia-related adverse event (Japanese patients, type 1 diabetes; oral, 100 mg/day, onset day 9; relative to: patients): 2%
N#Cc1cccc(-c2ccc3ncc(-c4cc(F)cc(F)c4)c(N4CCC(N)CC4)c3c2)c1O — absolute bioavailability (male human, plasma; 20 mg, geometric mean): 69%
CCOC(=O)N1C[C@@H](c2cc(F)c(O)c(F)c2)N[C@@H](c2ccc([C@H](C)CC)cc2)C1 — solubility (shake-flask, LC-HRMS; aqueous buffer; 16 h, pH 6.8): < 4 µM
COc1cccc(-c2n[nH]c(SCc3ccccn3)n2)c1OC — Cmax (Sprague-Dawley rats, male, plasma; intravenous, 1.0 mg/kg, single dose): 10900 ng/mL
C[C@H]1CN(C(=O)CC#N)[C@]12CCN(c1ncnc3[nH]ccc13)C2 — Tmax, median or range (healthy adults, plasma; oral, 3 mg single dose): 48 min
CCC[C@H](C)[C@H]1CN(C(=O)OCC)C[C@@H](c2ccc(C(F)(F)F)cc2)N1 — solubility (shake-flask, LC-HRMS; aqueous buffer; 16 h, pH 6.8): < 4 µM
Cc1cc([C@H]2C[C@H]3[C@@H](CF)SC(N)=N[C@@]3(c3ccc(F)cc3F)CO2)on1 — CSF concentration (129/SVE wild-type mouse, male; subcutaneous, 30 mg/kg, 9 h): 16 nM
Nc1nc2c(ncn2COCCO)c(=O)[nH]1 — solubility (shake-flask; methanol-ethanol mixture; 298.2 K, mass fraction 0.3): 570 µg/mL
Cc1cnc(N2CC3(CCOCC3)C2)c(C(=O)Nc2ccc(C(=O)N3CCc4cc(C(=O)Nc5c(C)cccc5F)sc4-c4ccccc43)cc2)c1 — duration of systemic exposure after dosing (rat, plasma; inhaled, 2.7 mg/kg): ≤ 12 h
Cc1cc(C(=O)NC(C)(C)COc2cccc3c2C(N)=NS(=O)(=O)N3)cc(C)n1.O=S(=O)(O)O — AUC(last) ratio (Sprague-Dawley rat, plasma; oral, 10 mg/kg, vehicle 1% methylcellulose; relative to: female over male): 1.12
CCO[C@H]1CCN(Cc2c(OC)cc(C)c3[nH]ccc23)[C@H](c2ccc(C(=O)O)cc2)C1 — incidence of haematuria (PNH patients, active haemolysis; oral, 200 mg, 8 weeks, treatment): 0%
Cc1ccc(Sc2ccccc2N2CCNCC2)c(C)c1 — participants with TEAE (refers to: Thirst; healthy adult men; oral, 5 mg single dose, 10 day): 0%
CNCc1ccc(-c2[nH]c3cc(F)cc4c3c2CCNC4=O)cc1 — vomiting incidence (human patients; oral, 480 mg twice daily, all grades): 55.6%
N#Cc1ccc([C@@H]2COC[C@@H](C3CCCC3)N2)cc1 — solubility (shake-flask, LC-HRMS; aqueous buffer; 16 h, pH 6.8): > 750 µM
CCO[C@H]1CCN(Cc2c(OC)cc(C)c3[nH]ccc23)[C@H](c2ccc(C(=O)O)cc2)C1 — total half-life (healthy volunteers, plasma; oral, 200 mg single dose, mean): 1240 min
CN1CCN(c2cccc3c2CCN(C(=O)/C=C/c2c(-n4cnnn4)ccc(Cl)c2F)[C@@H]3C(=O)Nc2ccc(C(=O)O)cc2)C(=O)C1 — discontinuations due to adverse events (healthy human subjects; intravenous infusion, 3 mg/h, 5 days): 0%
CCCCC[C@H](O)CC[C@@H]1[C@H]2Cc3cccc(OCC(=O)O)c3C[C@H]2C[C@H]1O — geometric mean half-life (LC-MS/MS; Japanese PAH patients, plasma; inhaled, 54 µg, background ERA therapy): 37.2 min
CCOC(=O)N1C[C@@H](c2cc(Cl)cc(Cl)c2)N[C@@H](C(CC)CC)C1 — solubility (shake-flask, LC-HRMS; aqueous buffer; 16 h, pH 6.8): < 4 µM
COc1cccc(OC)c1-c1cc(C(=O)NC2(C(=O)O)C3CC4CC(C3)CC2C4)nn1-c1ccc(C(=O)N(C)CCCN(C)CCCN(C)C(=O)CN2CCN(CC(=O)[O-])CCN(CC(=O)[O-])CCN(CC(=O)[O-])CC2)cc1C(C)C.[177Lu+3] (stereo not drawn) — tumour-to-bone ratio (mouse, HT-29 xenograft; 24 h post injection, biodistribution; relative to: tumour over bone uptake): 138
CCCc1ccc(-c2ccc(-c3cc(F)c(F)c(F)c3)c(F)c2)cc1 — placental accumulation (rat, placenta; 5000 ng/mL in perfusate, high dose, mixture of 21 LCMs): 338 ± 470 ng/g
O=C(Nc1ccc(OC(F)(F)F)cc1)N[C@H]1CC[C@H](Oc2ccc(C(=O)O)cc2)CC1 — solubility (deionised water; 2 min, pH 6.6, 37 °C, non-sink dissolution): 0.35 ± 0.106 µg/mL
Fc1ccc([C@@H]2COC[C@H](c3cc(Cl)cc(Cl)c3)N2)cc1 — solubility (shake-flask, LC-HRMS; aqueous buffer; 16 h, pH 6.8): < 4 µM
CCn1ncc2c1-c1cnc(N)c(c1)O[C@H](C)c1cc(F)ccc1-c1nn(C)nc1C2 — unbound plasma trough concentration (female athymic nude mice, sample B PDX; oral, 5 mg/kg twice daily for 21 days, 12 h): 69 ± 10 nM
CCn1c(=O)c(-c2cc(NC(=O)Nc3ccccc3)c(F)cc2Br)cc2cnc(NC)cc21 — participants with drug-related TEAE (refers to: nervous system disorders; healthy human, matched to severe hepatic impairment; oral, 50 mg single dose): 0%
Cc1cc(C)c(CNC(=O)c2cc(Cl)c3c(c2C)O[C@@](C)([C@H]2CC[C@H](N(C)C)CC2)O3)c(=O)[nH]1 — confusional state grade ≥3 (human relapsed/refractory NHL; oral, 200 mg once daily, onset after cycle 1 day 1): 4.2%
NC1(C(=O)N[C@@H](CCO)c2ccc(Cl)cc2)CCN(c2nc[nH]c3nccc2-3)CC1 — incidence of Dyspepsia (metastatic CRPC patients; 320 mg b.i.d., any grade, treatment-related, with: enzalutamide 160 mg daily): 0%
Cc1ccc([C@@H]2O[C@H](CO)[C@@H](O)[C@H](O)[C@H]2O)cc1Cc1ccc(-c2ccc(F)cc2)s1 — urinary sodium excretion change (Japanese type 2 diabetes patients; 400 mg, day 6, 24 h urine collection; relative to: baseline): -12.7 mEq
CC1(C)CCC(CN2CCN(c3ccc(C(=O)NS(=O)(=O)c4ccc(NCC5CCOCC5)c([N+](=O)[O-])c4)c(Oc4cnc5[nH]ccc5c4)c3)CC2)=C(c2ccc(Cl)cc2)C1 — lowest mean absolute neutrophil count (chronic lymphocytic leukaemia patients; dose not given, during treatment): 1600 ± 1300 cells/µL
Cc1c(-c2ccc(N3CCc4cccc(C(=O)Nc5nc6ccccc6s5)c4C3)nc2C(=O)O)cnn1CC12CC3(C)CC(C)(C1)CC(OCCNCC[C@H](O)CO)(C3)C2 — mean arterial pressure change (beagle dog, anaesthetised; intravenous infusion, 0.1 mg/kg/min, 5 min; relative to: baseline): 1 mmHg
O=c1[nH]c(=O)n([C@H]2C[C@H](O)[C@@H](CO)O2)cc1CCC[18F] — biodistribution (male CD-1 nu/nu mice, RG2 tumour, muscle; intravenous, dose not given, 2 h): 0.49 ± 0.19 %ID/g
CN1CCN(C(=O)CN(C)S(=O)(=O)c2ccc3ccccc3c2)CC1 — solubility (aqueous buffer; pH 7.4): 971 µg/mL
C[C@H](CCC(=O)NCC(=O)O)[C@H]1CC[C@H]2[C@@H]3CC[C@@H]4C[C@H](O)CC[C@]4(C)[C@H]3CC[C@]12C — Cmin (human, plasma; endogenous baseline diurnal): 9.27 ± 2.59 nM
O=c1[nH]c(=O)n([C@@H]2O[C@H](CO)[C@@H](O)[C@@H]2F)cc1CCCC[18F] — biodistribution (nude mice, RG2 tumour, kidney; intravenous, dose not given, 2 h): 0.33 ± 0.11 %ID/g
CNC(=O)c1ccc(-c2cnc3ncc(Cc4ccc5ncccc5c4)n3n2)cc1F — Lymphocyte count decreased dose reduction/interruption (Japanese patients; oral, 400 mg, grade 3/4): 1%
Cn1cc(Nc2nccc(-c3ccc4c(c3)CN(C3COC3)CC[C@H]4NC(=O)c3cn(C(C)(C)C)nn3)n2)cn1 — percent change from baseline (refers to: Monocytes count; human, clinical trial, whole blood; 50 mg twice daily, follow-up): -22%
CCc1c(-c2ccccc2)c(-c2ccccc2)nn1-c1ccccc1-c1cccc(OCC(=O)O)c1 — Cmax/dose (Sprague-Dawley rat; intravenous): 2950 kg·ng/mL/mg and 3900 kg·ng/mL/mg and 3730 kg·ng/mL/mg
C[C@H]1COC2=C1C(=O)C(=O)c1c2ccc2c1CCCC2(C)C — equilibrium solubility (saline; 24 h, 25 °C): 10 µg/mL
CCNCCCNC/C=C\CNCCCNCC — elimination rate constant (LC-MS/MS; human cancer patients, plasma; intravenous infusion 60 min, 100 mg, median, cycle 1): 3.66 h⁻¹
NS(=O)(=O)c1ccc(NN=C2C(=O)Nc3ccc(C(=O)O)cc32)cc1 — solubility (aqueous buffer; pH 7.4): 742 µg/mL
N[C@@H](C[18F])C(=O)O — tracer uptake (PET imaging; female athymic nude mice, U-87 MG xenograft, muscle; intravenous, 20 min): 1.24 ± 0.1 %ID/cc

Excerpt of the above:
COc1cccc(-c2n[nH]c(SCc3ccccn3)n2)c1OC — Cmax (Sprague-Dawley rats, male, plasma; intravenous, 1.0 mg/kg, single dose): 10900 ng/mL
C[C@H]1CN(C(=O)CC#N)[C@]12CCN(c1ncnc3[nH]ccc13)C2 — Tmax, median or range (healthy adults, plasma; oral, 3 mg single dose): 48 min
CCC[C@H](C)[C@H]1CN(C(=O)OCC)C[C@@H](c2ccc(C(F)(F)F)cc2)N1 — solubility (shake-flask, LC-HRMS; aqueous buffer; 16 h, pH 6.8): < 4 µM
Cc1cc([C@H]2C[C@H]3[C@@H](CF)SC(N)=N[C@@]3(c3ccc(F)cc3F)CO2)on1 — CSF concentration (129/SVE wild-type mouse, male; subcutaneous, 30 mg/kg, 9 h): 16 nM
Nc1nc2c(ncn2COCCO)c(=O)[nH]1 — solubility (shake-flask; methanol-ethanol mixture; 298.2 K, mass fraction 0.3): 570 µg/mL
Cc1cnc(N2CC3(CCOCC3)C2)c(C(=O)Nc2ccc(C(=O)N3CCc4cc(C(=O)Nc5c(C)cccc5F)sc4-c4ccccc43)cc2)c1 — duration of systemic exposure after dosing (rat, plasma; inhaled, 2.7 mg/kg): ≤ 12 h
Cc1cc(C(=O)NC(C)(C)COc2cccc3c2C(N)=NS(=O)(=O)N3)cc(C)n1.O=S(=O)(O)O — AUC(last) ratio (Sprague-Dawley rat, plasma; oral, 10 mg/kg, vehicle 1% methylcellulose; relative to: female over male): 1.12
